Published values of several laboratories.
Compare with care: the assays were run in different laboratories. Values joined by “and” are separate records of one study, mostly repeats; a detail may differ. ± gives the spread as reported.
Chain of UniProt Q61205 (whole entry, looked up): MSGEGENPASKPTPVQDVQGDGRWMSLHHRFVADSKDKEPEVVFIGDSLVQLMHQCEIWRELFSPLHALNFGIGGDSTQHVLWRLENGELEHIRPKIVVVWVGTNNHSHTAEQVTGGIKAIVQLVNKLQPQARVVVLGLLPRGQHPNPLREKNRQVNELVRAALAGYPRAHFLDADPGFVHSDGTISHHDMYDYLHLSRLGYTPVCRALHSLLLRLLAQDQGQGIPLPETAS
Chain of UniProt O96017 (whole entry, looked up): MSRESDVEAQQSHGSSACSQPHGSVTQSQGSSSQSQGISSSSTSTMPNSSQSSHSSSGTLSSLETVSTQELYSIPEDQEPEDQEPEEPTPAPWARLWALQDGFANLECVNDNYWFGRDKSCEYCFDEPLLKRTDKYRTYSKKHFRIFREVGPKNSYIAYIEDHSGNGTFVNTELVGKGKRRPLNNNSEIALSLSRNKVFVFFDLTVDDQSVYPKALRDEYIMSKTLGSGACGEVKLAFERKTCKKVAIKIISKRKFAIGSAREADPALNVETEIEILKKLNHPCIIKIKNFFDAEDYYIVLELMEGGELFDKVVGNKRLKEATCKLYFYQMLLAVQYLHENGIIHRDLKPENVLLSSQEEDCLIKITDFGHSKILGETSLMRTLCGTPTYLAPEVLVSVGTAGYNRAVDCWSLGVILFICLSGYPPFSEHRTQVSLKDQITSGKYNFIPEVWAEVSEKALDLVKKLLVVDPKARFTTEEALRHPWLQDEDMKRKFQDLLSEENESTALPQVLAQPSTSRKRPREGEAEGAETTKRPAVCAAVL
Chain of UniProt O75385 (whole entry, looked up): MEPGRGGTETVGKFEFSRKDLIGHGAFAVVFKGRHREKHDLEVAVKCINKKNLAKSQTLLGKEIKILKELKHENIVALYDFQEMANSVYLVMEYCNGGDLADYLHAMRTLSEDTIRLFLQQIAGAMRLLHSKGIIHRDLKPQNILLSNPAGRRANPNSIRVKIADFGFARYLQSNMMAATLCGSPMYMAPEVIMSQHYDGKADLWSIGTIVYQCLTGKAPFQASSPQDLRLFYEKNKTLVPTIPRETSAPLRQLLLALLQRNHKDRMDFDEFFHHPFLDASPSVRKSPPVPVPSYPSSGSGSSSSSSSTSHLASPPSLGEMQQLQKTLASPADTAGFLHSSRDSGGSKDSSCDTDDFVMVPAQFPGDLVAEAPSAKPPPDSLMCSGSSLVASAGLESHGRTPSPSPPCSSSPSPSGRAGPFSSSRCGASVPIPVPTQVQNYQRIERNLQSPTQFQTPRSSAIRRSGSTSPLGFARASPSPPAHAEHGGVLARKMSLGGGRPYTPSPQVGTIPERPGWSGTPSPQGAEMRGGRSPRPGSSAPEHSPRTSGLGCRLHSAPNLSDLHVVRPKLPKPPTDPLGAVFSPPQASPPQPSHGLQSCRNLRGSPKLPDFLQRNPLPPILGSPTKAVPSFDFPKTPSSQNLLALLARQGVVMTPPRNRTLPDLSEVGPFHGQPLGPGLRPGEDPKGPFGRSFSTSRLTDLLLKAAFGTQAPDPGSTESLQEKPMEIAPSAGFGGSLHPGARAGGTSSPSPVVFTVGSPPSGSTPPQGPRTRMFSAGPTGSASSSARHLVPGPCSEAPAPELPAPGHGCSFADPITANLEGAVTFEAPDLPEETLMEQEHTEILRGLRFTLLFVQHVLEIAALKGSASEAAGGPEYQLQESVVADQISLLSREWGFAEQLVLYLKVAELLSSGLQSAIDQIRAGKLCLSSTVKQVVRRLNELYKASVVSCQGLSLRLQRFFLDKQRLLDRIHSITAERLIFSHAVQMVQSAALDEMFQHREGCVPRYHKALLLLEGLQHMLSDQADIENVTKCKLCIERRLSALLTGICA

| Compound | target or system | assay | system | setting | how to read | measurement | value |
| --- | --- | --- | --- | --- | --- | --- | --- |
| Cc1ccccc1-c1ccc(-c2nc(-c3ccc(CN(C)CCCC(=O)O)c([18F])c3)no2)cc1C(F)(F)F | – | – | rat, muscle | 5 min | – | tracer uptake | 0.16 %ID/g |
| COc1ccc(C([O-])=CC(=O)c2ccc(C(C)(C)C)cc2)cc1.[Cl-].[Ru+2].c1ccc(-c2cccc(-c3ccccn3)n2)nc1 | – | – | zebrafish larvae | 10 µM, 48 h, dark | relative to: normal | viability | 100% |
| CC[C@H](C)[C@H](NC(=O)[C@H](C)NC(=O)[C@H](CCCCN)NC(=O)[C@H](CC(C)C)NC(=O)[C@@H](N)Cc1ccccc1)C(=O)N[C@@H](CCCCN)C(=O)N[C@@H](CCCCN)C(=O)N[C@@H](Cc1ccccc1)C(=O)NCC(=O)N[C@@H](CCCCN)C(=O)N[C@@H](CCC(=O)O)C(=O)N[C@@H](Cc1ccccc1)C(=O)N[C@@H](CCCCN)C(=O)N[C@@H](CCCCN)C(=O)N[C@H](C(=O)NCC(=O)N[C@@H](C)C(=O)N[C@@H](CCCCN)C(=O)N[C@@H](CC(C)C)C(=O)N[C@@H](CCCCN)C(=O)O)[C@@H](C)CC | – | – | human red blood cells | 32 mg/L, 1 h | – | hemolysis | 1.06% |
| CS(C)(=O)=Nc1ccc(-c2ccc(-c3nc4cc(O[C@@H]5CO[C@H]6[C@@H]5OC[C@H]6O)[nH]c4cc3F)cc2)cc1 | CHEK2 (Homo sapiens, UniProt O96017) | enzyme activity, inhibitor | – | 10 µM | – | inhibition | 11% |
| CN1Cc2cc(Cl)ccc2-n2c(nnc2C2CCN(c3cccc([18F])n3)CC2)C1 | – | – | C57BL/6 mouse male, kidney | intravenous, 3.7 MBq, 5 min | – | tissue uptake | 11.8 ± 1.13 %ID/g |
| CCCCCCCCCCCCCC(=O)N[C@H](CCN)C(=O)N[C@@H]1C(=O)N[C@@H](CCN)C(=O)N[C@@H](CC(C)C)C(=O)N[C@@H](CCN)C(=O)N[C@H](Cc2ccccc2)C(=O)N[C@@H](CC(C)C)C(=O)N[C@@H](CCN)C(=O)N[C@H](CCN)C(=O)N[C@@H](C(C)C)C(=O)N[C@@H](CC(=O)O)C(=O)O[C@@H]1C | – | – | rat | subcutaneous, 10 mg/kg | – | AUC extrapolated percentage | 1.49 ± 0.18% |
| O=C1NC2(CC2)COc2ncc(F)cc2[C@H]2COCCN2c2ccn3ncc1c3n2 | – | – | Sprague-Dawley rat, male, serum | oral, 2.5 mg/kg/day, 4 weeks daily, end of recovery period | – | albumin | 38.9 ± 1.7 g/L |
| CC[C@H](C)[C@H](NC(=O)[C@H](Cc1ccc(O)cc1)NC(=O)[C@@H](NC(=O)[C@H](CCCNC(=N)N)NC(=O)[C@@H](N)CC(=O)O)C(C)C)C(=O)N[C@@H](Cc1c[nH]cn1)C(=O)N1CCC[C@H]1C(=O)O | – | – | Sprague-Dawley rat | sc, 10 mg/kg once daily, 28 days | – | tolerability | not toxic |
| CC(C)[C@@H]1NC(=O)CNC(=O)[C@H](CC(N)=O)NC(=O)[C@H](CCCNC(=N)N)NC(=O)[C@H](Cc2ccc(O)cc2)NC(=O)[C@H](C(C)C)NC(=O)[C@@H](NC(=O)[C@@H](NC(=O)[C@H](CC(N)=O)NC(=O)[C@H](Cc2c[nH]c3ccccc23)NC(=O)[C@H](C)NC(=O)[C@H](Cc2ccccc2)NC(=O)CNC(=O)[C@H](CCCCN)NC(=O)[C@H](Cc2ccccc2)NC(=O)[C@H](Cc2ccccc2)NC(=O)[C@H](CCCCN)NC(=O)OCC2c3ccccc3-c3ccccc32)C(C)C)CSSC[C@@H](C(=O)N[C@@H](Cc2c[nH]cn2)C(=O)N[C@@H](CCCNC(=N)N)C(=O)N[C@@H](CCCNC(=N)N)C(=O)N[C@@H](C)C(=O)N[C@@H](CC(N)=O)C(N)=O)NC(=O)[C@H](C(C)C)NC(=O)[C@H](CCCNC(=N)N)NC1=O | – | HPLC | mouse liver homogenate 50 mg/mL | 8.00 h | – | peptide remaining | 30.9% and 33.9% and 36.9% |
| CSCC[C@H](N)C(=O)N[C@@H](C)C(=O)N[C@@H](CCCNC(=N)N)C(=O)N[C@@H](CCCNC(=N)N)C(=O)N[C@@H](CC(=O)O)C(=O)N[C@@H](CCCCN)C(=O)N[C@H](C(=O)N[C@@H](CC(=O)O)C(=O)N[C@@H](Cc1ccccc1)C(=O)N[C@@H](C)C(=O)N[C@@H](CCCNC(=N)N)C(=O)N[C@@H](CCCNC(=N)N)C(=O)N[C@@H](CCCNC(=N)N)C(=O)N[C@@H](CCCNC(=N)N)C(=O)NCCCCCC(=O)NCCCCC(NC(=O)CCCCCNC(=O)[C@H](CCCNC(=N)N)NC(=O)[C@H](CCCNC(=N)N)NC(=O)[C@H](CCCNC(=N)N)NC(=O)[C@H](CCCNC(=N)N)NC(=O)[C@H](C)NC(=O)[C@H](Cc1ccccc1)NC(=O)[C@H](CC(=O)O)NC(=O)[C@@H](NC(=O)[C@H](CCCCN)NC(=O)[C@H](CC(=O)O)NC(=O)[C@H](CCCNC(=N)N)NC(=O)[C@H](CCCNC(=N)N)NC(=O)[C@H](C)NC(=O)[C@@H](N)CCSC)[C@@H](C)O)C(=O)NCCCCC(NC(=O)C(CCCCNC(=O)CCCCCNC(=O)[C@H](CCCNC(=N)N)NC(=O)[C@H](CCCNC(=N)N)NC(=O)[C@H](CCCNC(=N)N)NC(=O)[C@H](CCCNC(=N)N)NC(=O)[C@H](C)NC(=O)[C@H](Cc1ccccc1)NC(=O)[C@H](CC(=O)O)NC(=O)[C@@H](NC(=O)[C@H](CCCCN)NC(=O)[C@H](CC(=O)O)NC(=O)[C@H](CCCNC(=N)N)NC(=O)[C@H](CCCNC(=N)N)NC(=O)[C@H](C)NC(=O)[C@@H](N)CCSC)[C@@H](C)O)NC(=O)CCCCCNC(=O)[C@H](CCCNC(=N)N)NC(=O)[C@H](CCCNC(=N)N)NC(=O)[C@H](CCCNC(=N)N)NC(=O)[C@H](CCCNC(=N)N)NC(=O)[C@H](C)NC(=O)[C@H](Cc1ccccc1)NC(=O)[C@H](CC(=O)O)NC(=O)[C@@H](NC(=O)[C@H](CCCCN)NC(=O)[C@H](CC(=O)O)NC(=O)[C@H](CCCNC(=N)N)NC(=O)[C@H](CCCNC(=N)N)NC(=O)[C@H](C)NC(=O)[C@@H](N)CCSC)[C@@H](C)O)C(N)=O)[C@@H](C)O (stereo partly drawn) | – | – | C57BL/6 mouse female, femur | dose not given, 6 h | relative to: total | tissue distribution | 1.55% and 1.19% and 0.71% |
| CSCC[C@H](NC(=O)CNC(=O)[C@H](CCCCN)NC(=O)[C@H](CC(C)C)NC(=O)[C@@H]1CCCN1C(=O)[C@H](CO)NC(=O)[C@H](Cc1c[nH]cn1)NC(=O)[C@H](Cc1c[nH]c2ccccc12)NC(=O)[C@H](CCCNC(=N)N)NC(=O)[C@H](CC(C)C)NC(=O)[C@H](CCCNC(=N)N)NC(=O)[C@H](Cc1c[nH]c2ccccc12)NC(=O)[C@H](CS)NC(=O)CCCCCNC(=O)CN1CCN(CC(=O)O)CCN(CC(=O)O)CCN(CC(=O)O)CC1)C(=O)O [copper-64 labelled] | – | – | BALB/c nude mouse, Huh-7 tumour, tumour and blood | intravenous, 1.85 MBq, 1 h, ex vivo biodistribution | relative to: tumour over blood | tumour-to-blood ratio | 1.97 |
| CC[C@H](C)[C@H](NC(=O)[C@H](CCCCN)NC(=O)CNC(=O)[C@H](CC(C)C)NC(=O)[C@H](Cc1ccccc1)NC(=O)[C@H](CCCCN)NC(=O)[C@H](CO)NC(=O)[C@H](Cc1ccccc1)NC(=O)[C@H](Cc1c[nH]c2ccccc12)NC(=O)[C@H](CCC(N)=O)NC(=O)[C@@H](NC(=O)[C@H](Cc1ccccc1)NC(=O)CCCCCNC(=O)CN1CCN(CC(=O)O)CCN(CC(=O)O)CCN(CC(=O)O)CC1)C(C)C)C(=O)N[C@@H](CCC(=O)O)C(=O)N1CCC[C@H]1C(=O)N[C@@H](CC(=O)O)C(=O)N[C@H](C(=O)N[C@@H](CO)C(=O)N[C@@H](CCC(N)=O)C(=O)N[C@H](C(=O)N[C@@H](CCC(N)=O)C(=O)N[C@@H](CC(=O)O)C(=O)N1CCC[C@H]1C(=O)N[C@@H](CC(N)=O)C(=O)N[C@@H](CC(=O)O)C(=O)N[C@@H](CCC(N)=O)C(=O)N[C@@H](Cc1ccc(O)cc1)C(=O)N[C@@H](CCC(=O)O)C(=O)N1CCC[C@H]1C(=O)N[C@@H](Cc1ccccc1)C(=O)O)C(C)C)C(C)C [copper-64 labelled] | – | dynamic PET | mouse, CT26 tumour, untreated, tumour | intravenous, 100 µCi/mouse, 1740 s | – | SUVmean | 1.25 SUV |
| CC(C)CC(O)(CC(C)C)c1cn(C(=O)N2CCCC2)nn1 | Platelet-activating factor acetylhydrolase IB subunit alpha1 (Pafah1b3, Mus musculus, UniProt Q61205) | probe labelling, inhibitor, competitive ABPP-SILAC, refers to: Pafah1b3 | mouse T cells | concentration not given, 4 h, single peptide | relative to: treated over DMSO cells, lower = stronger inhibition | SILAC activity ratio | 1.27 and 1.31 and 1.23 and 1.24 and 1.28 and 1.22 and 1.21 |
| COc1ccccc1-c1n[nH]c2nc(NC3CCN(C(=O)Cc4ccc(F)cc4F)CC3)ncc12 | – | bead binding, competition bead pull-down, refers to: LINJ.36.2070 | Leishmania donovani axenic amastigote extract | 10 µM | relative to: vehicle | relative abundance | 1.12 |
| CC[C@H](C)[C@@H]([C@@H](CC(=O)N1CCC[C@H]1[C@H](OC)[C@@H](C)C(=O)N[C@H](C)[C@@H](O)c1ccccc1)OC)N(C)C(=O)[C@@H](NC(=O)[C@H](C(C)C)N(C)C(=O)OCc1ccc(NC(=O)[C@H](CCCNC(N)=O)NC(=O)[C@@H](NC(=O)CCCCCN2C(=O)CC(SC[C@H](NC(=O)[C@H](CC(=O)O)NC(=O)[C@H](Cc3ccc(O)cc3)NC(=O)[C@H](Cc3c[nH]c4ccccc34)NC(=O)[C@@H](N)CCCNC(=N)N)C(=O)O)C2=O)C(C)C)cc1)C(C)C (stereo partly drawn) | – | – | C57BL/6 mice (healthy), serum and organs | intraperitoneal, 2.5 mg/kg, 6 h | – | concentration | not detected |
| CC(C)=CCC/C(C)=C\CCn1cc(CC(P(=O)(O)O)P(=O)(O)O)nn1 | – | – | mouse CD-1 | intravenous, 0.3 mg/kg, 8 h | relative to: dose | biliary excretion | 0.77% |
| COc1ccc(CNc2ccc3c(c2)S(=O)(=O)C=C3)cc1 | – | flow cytometry | male C57BL/6 mice, spleen | i.p., 20 mg/kg, 8 days | relative to: CD45+ cells | CD4+ cells | 13.9% |
| CC[C@H](C)[C@H](NC(=O)[C@H](Cc1ccc(O)cc1)NC(=O)[C@H](C)NC(=O)[C@H](CC(=O)O)NC(=O)[C@H](CC(C)C)NC(=O)[C@H](C)NC(=O)[C@H](C)NC(=O)[C@H](CCCCN)NC(=O)CNC(=O)[C@@H](NC(=O)[C@H](Cc1c[nH]cn1)NC(=O)[C@H](CCCCN)NC(=O)CNC(=O)[C@@H](NC(=O)[C@H](Cc1c[nH]cn1)NC(=O)[C@@H](NC(=O)[C@H](C)NC(=O)[C@H](CCCCN)NC(=O)[C@H](CCCCN)NC(=O)[C@@H](NC(=O)[C@H](Cc1c[nH]c2ccccc12)NC(=O)[C@H](CCCCN)NC(=O)[C@H](CCCNC(=N)N)NC(=O)[C@H](Cc1c[nH]c2ccccc12)NC(=O)CN)[C@@H](C)CC)[C@@H](C)O)C(C)C)[C@@H](C)CC)C(N)=O | – | – | zebrafish embryos 4 hpf, E3 medium | 24 h | – | chronic toxic concentration | 5 µM |
| CN(C)[C@H]1C[C@@]23CC[C@@]4(O2)C(=CC[C@]2(C)[C@@H](c5ccc6ccncc6c5)CC[C@H]24)C=C3[C@@H](O)[C@@H]1O | ULK1 (Homo sapiens, UniProt O75385) | ATP probe labelling, inhibitor, KiNativ profiling | – | 1 µM | – | inhibition | 5.7% |
| CC(C)C[C@@H](NC(=O)[C@@H](CCCNC(=N)N)NC(=O)[C@@H](Cc1c[nH]cn1)NC(=O)[C@@H](Cc1c[nH]c2ccccc12)NC(=O)[C@@H](Cc1c[nH]cn1)NC(=O)[C@@H](Cc1ccccc1)NC(=O)[C@H](NC(=O)[C@@H](Cc1ccc(O)cc1)NC(=O)CNC(=O)CNC(=O)CCOCCOCCOCCNC(=O)CN1CCN(CC(=O)O)CCN(CC(=O)O)CC1)[C@H](C)O)C(=O)N[C@H](CC(N)=O)C(=O)N1CCC[C@@H]1C(=O)O [gallium-68 labelled] | – | – | C57BL/6 mice, male | intravenous, 1.85 MBq, 120 min | relative to: tumour over liver | tissue ratio | 6.13 ± 1.62 |
| C[C@]12COc3ccc(OCc4ccccc4)cc3[C@H]1CCN2 | – | lipid PAMPA | PBS | 10 µM, 16 h, pH 7.4, 25 °C | – | permeability (Pe) | 5.01 ×10⁻⁶ cm/s |

Some of these lines once more:
| Compound | target or system | assay | system | setting | how to read | measurement | value |
| --- | --- | --- | --- | --- | --- | --- | --- |
| CC[C@H](C)[C@H](NC(=O)[C@H](Cc1ccc(O)cc1)NC(=O)[C@@H](NC(=O)[C@H](CCCNC(=N)N)NC(=O)[C@@H](N)CC(=O)O)C(C)C)C(=O)N[C@@H](Cc1c[nH]cn1)C(=O)N1CCC[C@H]1C(=O)O | – | – | Sprague-Dawley rat | sc, 10 mg/kg once daily, 28 days | – | tolerability | not toxic |
| CC(C)=CCC/C(C)=C\CCn1cc(CC(P(=O)(O)O)P(=O)(O)O)nn1 | – | – | mouse CD-1 | intravenous, 0.3 mg/kg, 8 h | relative to: dose | biliary excretion | 0.77% |
| Cc1ccccc1-c1ccc(-c2nc(-c3ccc(CN(C)CCCC(=O)O)c([18F])c3)no2)cc1C(F)(F)F | – | – | rat, muscle | 5 min | – | tracer uptake | 0.16 %ID/g |
